Measured values from different studies.
Compare with care: the assays were run in different laboratories.

Structure (SMILES)	system	conditions	AUC(0-last)
CC(F)(F)c1cc(F)ccc1-c1sc2cc(O)ccc2c1Oc1ccc(/C=C/C(=O)O)cc1	human patients, serum	oral, 300 mg once daily, cycle 1 day 28, regular meal, mean, added: alpelisib	17100 ng·h/mL
CC(C)n1nc(-c2ccc3oc(N)nc3c2)c2c(N)ncnc21	human, plasma	oral, 3 mg once daily, cycle 1 day 1	189 ng·h/mL
C=CC(=O)N(C)CCOc1c(N)ncnc1-c1cc(F)cc(NC(=O)c2ccc(C3CC3)cc2F)c1C	human, fasted, whole blood	oral, 60 mg single dose, food effect study, mean	192 ng·h/mL
CN(C)C(=O)c1cc2cnc(Nc3ccc(N4CCNCC4)cn3)nc2n1C1CCCC1	human, end-stage renal disease, plasma	oral, 400 mg, single dose, geometric mean	13500 ng·h/mL
Cn1nc2c(=O)n(C3CC3)cnc2c1[C@](O)(c1cnc(C(F)(F)F)c(Cl)c1)C(F)(F)F	infected humanized SCID mice, blood	30 mg/kg daily, 6 days	1340 µM·h
Cc1noc(C)c1-c1cc(C(O)(c2ccccn2)c2ccccn2)c2nc(C3CC3)[nH]c2c1	human male fasted, plasma	oral, 2 mg once daily, cycle 1 day 8	4210 ng·h/mL
CCOc1c([C@H](C)n2nc(C)c3c(N)ncnc32)cc(Cl)c(F)c1[C@@H]1CNC(=O)C1	human patients, plasma	oral, 20 mg, day 1, geometric mean	6.41 µM·h
Cn1c(=O)oc2ccc(-c3ccc(C[C@@H](C#N)NC(=O)[C@@H]4CNCCCO4)cc3)cc21	human, normal renal function, plasma	oral, 25 mg single dose, mean	3480 ng·h/mL
Cc1cc(Nc2cc3ncccc3c(N[C@@H]3C[C@H]4CC[C@@H](C3)N4CCC#N)n2)n[nH]1	human, plasma	30 mg single dose, mean	4.78 ng·h/mL
N#CCNC(=O)c1ccc(-c2ccnc(Nc3ccc(N4CCOCC4)cc3)n2)cc1	healthy human volunteers, plasma	oral, dose not given, day 4, without rifampin	4850 ng·h/mL
CC(C)NC(=O)COc1cccc(-c2nc(Nc3ccc4[nH]ncc4c3)c3ccccc3n2)c1	human male, plasma	oral, 200 mg, day 6, alone, adjusted geometric mean	9640 ng·h/mL
